# Assay results from different studies.
# Protocols differ between the studies behind these lines.
# APP: Amyloid-beta precursor protein (APP, Homo sapiens, UniProt P05067)
# Chain of UniProt P05067 (whole entry, looked up): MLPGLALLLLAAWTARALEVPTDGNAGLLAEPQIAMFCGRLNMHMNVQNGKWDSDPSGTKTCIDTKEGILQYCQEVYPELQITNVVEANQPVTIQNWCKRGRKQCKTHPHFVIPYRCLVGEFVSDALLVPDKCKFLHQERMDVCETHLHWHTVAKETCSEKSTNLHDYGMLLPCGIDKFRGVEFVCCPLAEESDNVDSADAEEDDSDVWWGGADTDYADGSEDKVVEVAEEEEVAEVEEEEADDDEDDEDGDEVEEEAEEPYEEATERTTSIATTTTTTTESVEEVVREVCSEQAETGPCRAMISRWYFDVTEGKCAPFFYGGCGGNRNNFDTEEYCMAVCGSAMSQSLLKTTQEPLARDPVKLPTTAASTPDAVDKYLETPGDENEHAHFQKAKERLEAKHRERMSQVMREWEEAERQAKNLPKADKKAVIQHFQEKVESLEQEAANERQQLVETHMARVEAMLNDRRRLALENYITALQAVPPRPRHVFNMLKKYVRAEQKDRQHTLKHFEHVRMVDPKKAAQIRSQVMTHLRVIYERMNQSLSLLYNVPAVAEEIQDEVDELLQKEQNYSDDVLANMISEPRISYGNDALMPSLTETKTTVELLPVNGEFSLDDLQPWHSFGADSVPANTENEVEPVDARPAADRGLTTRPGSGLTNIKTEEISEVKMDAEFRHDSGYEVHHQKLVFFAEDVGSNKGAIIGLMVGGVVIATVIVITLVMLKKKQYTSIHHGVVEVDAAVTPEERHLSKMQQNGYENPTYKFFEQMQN
# lasR: Transcriptional activator protein LasR (lasR, Pseudomonas aeruginosa, UniProt P25084)
# Chain of UniProt P25084 (whole entry, looked up): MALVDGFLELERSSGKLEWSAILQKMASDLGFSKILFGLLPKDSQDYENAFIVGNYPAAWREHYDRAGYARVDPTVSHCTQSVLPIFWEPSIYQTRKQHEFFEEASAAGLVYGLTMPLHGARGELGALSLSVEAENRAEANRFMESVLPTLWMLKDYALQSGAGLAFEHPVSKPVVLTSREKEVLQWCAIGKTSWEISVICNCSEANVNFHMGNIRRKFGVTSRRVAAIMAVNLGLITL
# Chain of UniProt Q0QF01 (whole entry, looked up): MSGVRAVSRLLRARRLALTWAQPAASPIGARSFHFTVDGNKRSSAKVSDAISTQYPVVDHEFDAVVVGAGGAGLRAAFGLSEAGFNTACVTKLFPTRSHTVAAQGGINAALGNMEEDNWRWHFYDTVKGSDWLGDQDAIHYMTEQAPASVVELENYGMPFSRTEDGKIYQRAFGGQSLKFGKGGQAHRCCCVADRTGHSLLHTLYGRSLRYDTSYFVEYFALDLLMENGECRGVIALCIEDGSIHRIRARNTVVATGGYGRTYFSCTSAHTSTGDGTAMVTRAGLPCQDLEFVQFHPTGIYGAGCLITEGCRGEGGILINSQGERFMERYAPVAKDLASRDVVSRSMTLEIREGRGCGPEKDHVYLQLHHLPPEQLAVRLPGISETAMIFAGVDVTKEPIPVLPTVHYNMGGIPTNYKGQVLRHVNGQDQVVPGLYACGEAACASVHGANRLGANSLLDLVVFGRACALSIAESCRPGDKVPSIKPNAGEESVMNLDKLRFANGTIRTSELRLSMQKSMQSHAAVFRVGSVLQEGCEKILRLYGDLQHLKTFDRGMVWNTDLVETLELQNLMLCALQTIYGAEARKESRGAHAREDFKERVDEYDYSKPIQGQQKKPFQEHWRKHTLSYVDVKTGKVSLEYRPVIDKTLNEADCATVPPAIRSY
# Chain of UniProt Q96GD4 (whole entry, looked up): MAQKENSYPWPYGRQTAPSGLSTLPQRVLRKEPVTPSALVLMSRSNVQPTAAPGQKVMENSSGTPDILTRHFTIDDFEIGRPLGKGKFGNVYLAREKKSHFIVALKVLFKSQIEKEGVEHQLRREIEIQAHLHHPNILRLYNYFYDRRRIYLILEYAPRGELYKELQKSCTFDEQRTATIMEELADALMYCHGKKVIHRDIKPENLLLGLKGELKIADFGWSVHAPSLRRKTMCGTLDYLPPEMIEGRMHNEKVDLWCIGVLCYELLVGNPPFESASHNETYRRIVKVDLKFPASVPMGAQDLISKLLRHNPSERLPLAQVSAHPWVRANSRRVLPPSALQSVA
# Chain of UniProt A5GZW8 (whole entry, looked up): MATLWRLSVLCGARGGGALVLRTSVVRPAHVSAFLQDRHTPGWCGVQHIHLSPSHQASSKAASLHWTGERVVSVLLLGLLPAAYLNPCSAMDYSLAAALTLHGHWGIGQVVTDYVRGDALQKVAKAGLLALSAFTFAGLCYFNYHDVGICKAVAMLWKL
# Chain of UniProt C7C422 (whole entry, looked up): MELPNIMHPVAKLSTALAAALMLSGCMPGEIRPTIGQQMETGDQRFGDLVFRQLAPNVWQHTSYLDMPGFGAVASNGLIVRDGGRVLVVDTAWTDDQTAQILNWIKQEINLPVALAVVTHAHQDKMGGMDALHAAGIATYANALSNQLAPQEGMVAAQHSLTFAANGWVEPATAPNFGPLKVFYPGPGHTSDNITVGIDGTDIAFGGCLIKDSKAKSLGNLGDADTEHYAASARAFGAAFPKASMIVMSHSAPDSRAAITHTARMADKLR
# Chain of UniProt P01258 (whole entry, looked up): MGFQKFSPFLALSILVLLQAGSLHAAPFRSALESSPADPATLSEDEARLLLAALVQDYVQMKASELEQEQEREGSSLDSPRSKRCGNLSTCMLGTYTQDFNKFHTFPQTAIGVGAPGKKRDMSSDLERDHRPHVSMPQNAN
# Chain of UniProt P41595 (whole entry, looked up): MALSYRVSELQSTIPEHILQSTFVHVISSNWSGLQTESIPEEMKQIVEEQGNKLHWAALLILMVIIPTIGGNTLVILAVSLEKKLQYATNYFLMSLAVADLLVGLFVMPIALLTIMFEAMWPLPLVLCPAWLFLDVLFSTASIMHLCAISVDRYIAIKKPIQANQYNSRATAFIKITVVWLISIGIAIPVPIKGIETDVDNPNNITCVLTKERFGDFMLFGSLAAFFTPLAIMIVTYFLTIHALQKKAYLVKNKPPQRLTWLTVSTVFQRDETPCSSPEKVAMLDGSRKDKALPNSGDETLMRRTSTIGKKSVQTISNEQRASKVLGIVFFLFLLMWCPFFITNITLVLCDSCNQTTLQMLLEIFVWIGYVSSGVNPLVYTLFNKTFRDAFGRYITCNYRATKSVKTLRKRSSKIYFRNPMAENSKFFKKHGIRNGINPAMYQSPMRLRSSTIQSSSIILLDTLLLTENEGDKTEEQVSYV
# Chain of UniProt Q007T0 (whole entry, looked up): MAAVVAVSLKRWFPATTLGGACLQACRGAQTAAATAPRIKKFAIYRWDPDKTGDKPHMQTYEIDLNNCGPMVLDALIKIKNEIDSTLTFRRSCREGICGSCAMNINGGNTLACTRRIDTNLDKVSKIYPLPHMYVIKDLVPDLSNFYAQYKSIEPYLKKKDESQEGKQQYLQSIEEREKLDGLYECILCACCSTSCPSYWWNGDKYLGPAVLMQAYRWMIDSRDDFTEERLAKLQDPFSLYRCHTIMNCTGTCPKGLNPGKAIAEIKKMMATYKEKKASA
# Chain of UniProt D0VWV4 (whole entry, looked up): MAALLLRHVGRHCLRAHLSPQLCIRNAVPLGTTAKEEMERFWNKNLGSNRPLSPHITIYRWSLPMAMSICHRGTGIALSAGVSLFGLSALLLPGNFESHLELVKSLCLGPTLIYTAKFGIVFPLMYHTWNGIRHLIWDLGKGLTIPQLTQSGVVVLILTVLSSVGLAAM
# Chain of UniProt Q86TI2 (whole entry, looked up): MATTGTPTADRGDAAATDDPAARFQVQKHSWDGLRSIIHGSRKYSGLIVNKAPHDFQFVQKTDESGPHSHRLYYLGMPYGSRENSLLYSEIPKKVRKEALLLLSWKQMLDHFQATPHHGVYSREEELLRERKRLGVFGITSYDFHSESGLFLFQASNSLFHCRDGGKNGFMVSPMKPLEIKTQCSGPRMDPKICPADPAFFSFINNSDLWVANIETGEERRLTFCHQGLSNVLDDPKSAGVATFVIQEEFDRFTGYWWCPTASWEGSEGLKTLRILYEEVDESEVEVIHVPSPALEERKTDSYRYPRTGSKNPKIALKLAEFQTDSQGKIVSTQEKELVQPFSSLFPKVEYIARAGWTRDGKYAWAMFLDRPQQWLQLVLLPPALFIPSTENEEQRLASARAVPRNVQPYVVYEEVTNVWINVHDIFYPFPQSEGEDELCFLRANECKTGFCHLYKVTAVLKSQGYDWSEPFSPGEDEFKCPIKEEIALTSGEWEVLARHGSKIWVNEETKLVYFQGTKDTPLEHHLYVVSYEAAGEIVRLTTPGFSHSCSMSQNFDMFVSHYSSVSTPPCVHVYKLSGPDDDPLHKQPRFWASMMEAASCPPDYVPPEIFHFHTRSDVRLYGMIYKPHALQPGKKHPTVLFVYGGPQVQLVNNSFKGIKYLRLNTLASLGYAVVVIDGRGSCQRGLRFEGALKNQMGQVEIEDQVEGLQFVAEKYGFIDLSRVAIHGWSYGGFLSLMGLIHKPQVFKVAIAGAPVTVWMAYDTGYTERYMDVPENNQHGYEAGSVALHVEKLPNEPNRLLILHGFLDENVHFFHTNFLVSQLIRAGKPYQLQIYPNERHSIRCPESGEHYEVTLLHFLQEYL
SMILES,target,assay,test system,setting,inhibition
CCOC(=O)/C=C/c1c(-c2ccc(C)cc2)nc2ccc(/N=N/c3ccc([N+](=O)[O-])cc3)cc2c1-c1ccccc1,APP,"amyloid aggregation, inhibitor, fluorescence",,25 µM,~75%
CC(=O)NC(Cc1ccc(Br)c(Cl)c1)C(=O)N[C@@H](C)C(=O)N1CCC[C@H]1C(=O)N1CCC[C@H]1C(=O)N[C@@H](CCC(=O)O)C(=O)N[C@@H](Cc1c[nH]cn1)C(=O)N[C@@H](CO)C(=O)N[C@H](C(=O)N[C@@H](C)C(N)=O)[C@@H](C)OP(=O)(O)O (stereo partly drawn),"Aurora kinase B (AURKB, Homo sapiens, UniProt Q96GD4)","enzyme activity, inhibitor",,10 µM,1.6%
CC[C@H](C)[C@@H]1NC(=O)CNC(=O)[C@H](CCSC)NC(=O)[C@H](C(C)C)NC(=O)[C@H]([C@@H](C)O)NC(=O)[C@@H]2CSSC[C@@H]3NC(=O)[C@H](Cc4c[nH]cn4)NC(=O)[C@@H](NC(=O)[C@@H](NC(=O)[C@H](Cc4ccccc4)NC(=O)[C@H](C)N)[C@@H](C)O)CSSC[C@@H](C(=O)N[C@@H](CC(C)C)C(=O)O)NC(=O)[C@H](CSSC[C@H](NC(=O)[C@H](CO)NC(=O)[C@H](CCCNC(=N)N)NC(=O)[C@H](CCCNC(=N)N)NC3=O)C(=O)N[C@@H](Cc3ccc(O)cc3)C(=O)N[C@@H](CO)C(=O)N[C@@H]([C@@H](C)O)C(=O)N[C@@H](CCC(=O)O)C(=O)N[C@@H](Cc3ccc(O)cc3)C(=O)N[C@@H](CO)C(=O)N[C@@H](Cc3ccc(O)cc3)C(=O)NCC(=O)N[C@@H]([C@@H](C)O)C(=O)N2)NC(=O)[C@H](Cc2ccccc2)NC(=O)[C@H](CCCNC(=N)N)NC(=O)[C@H](Cc2c[nH]cn2)NC(=O)[C@H](CC(N)=O)NC1=O,"CALCA, calcitonin (Homo sapiens, UniProt P01258)","amyloid fibril formation, inhibitor, ThT fluorescence",,"concentration not given, 24 to 30 h, 37 °C, compound ratio 1:1, added: calcitonin 20 µM",73%
Clc1ccc(/N=N/c2ccc3nc(-c4ccccc4)c(I)c(-c4ccccc4)c3c2)cc1,APP,"amyloid aggregation, inhibitor, fluorescence",,25 µM,49.6%
CC(C)C(=O)Nc1ccccc1-c1nn[nH]n1,"blaNDM-1 (Klebsiella pneumoniae, UniProt C7C422)","enzyme activity, inhibitor",,concentration not given,no inhibition
CCCCc1cn(-c2ccc(C(=O)N[C@H]3CCOC3=O)cc2)nn1,lasR,"reporter gene, antagonist",,"100 µM, added: OdDHL 10 nM",60%
C/C(=N\OCCCN1CCCCC1)c1ccc(C(F)(F)F)cc1,"HTR2B (Homo sapiens, UniProt P41595)","antagonist, IP-One",,10 µM,10.4%
O=C(N[C@H]1CCOC1=O)c1ccc(-n2cc(-c3cc(F)cc(F)c3)nn2)cc1,lasR,"reporter gene, antagonist",,"10 µM, added: OdDHL 10 nM",1%
CCn1c2ccccc2c2cc(C(O)c3ccc(C)c4ccccc34)ccc21 (stereo not drawn),tubulin colchicine site,"[3H]colchicine binding, competition binding",purified tubulin,5 µM,70%
CCCCCc1cn(-c2cccc(C(=O)N[C@H]3CCOC3=O)c2)nn1,lasR,"reporter gene, antagonist",,"10 µM, added: OdDHL 10 nM",18%
O=C(Nc1ccccc1Nc1ccccc1)c1cccnc1Cl,"Succinate dehydrogenase complex (Sus scrofa, UniProt A5GZW8+D0VWV4+Q007T0+Q0QF01)","enzyme activity, double-antibody sandwich ELISA",,1 µM,39.4%
COC(=O)[C@@H]1CCCN1C(=O)[C@@H](O)[C@H](N)CC(C)C,"DPP9 (Homo sapiens, UniProt Q86TI2)","enzyme activity, inhibitor",,"concentration not given, added: Ala-Pro-AMC substrate",no inhibition

# Some of these lines once more:
SMILES,target,assay,test system,setting,inhibition
CCOC(=O)/C=C/c1c(-c2ccc(C)cc2)nc2ccc(/N=N/c3ccc([N+](=O)[O-])cc3)cc2c1-c1ccccc1,APP,"amyloid aggregation, inhibitor, fluorescence",,25 µM,~75%
